Measurements pooled from the literature.
Each line is one published result; not all experiments were run side by side.
Organism: Escherichia coli

`C/C(=C\c1ccc(O)cc1)C(=O)Nc1ccc(C(=O)N[C@@H](Cc2c[nH]nn2)C(=O)Nc2ccc(C(=O)Nc3ccc(C(=O)Nc4ccc(C(=O)O)cc4)cc3)cc2)cc1` gave an MIC of 0.25 µg/mL (broth microdilution; ciprofloxacin-resistant).
With `COc1ccc2ccc(O)c(/C=N/[C@H]3CCCC[C@H]3/N=C/c3cc(C)ccc3O)c2c1` the MIC was > 40 µM (microbial growth, broth dilution; clinical isolate).
`C[C@H](CS)C(=O)Nc1cccc(-c2nn[nH]n2)c1` gave an MIC of < 0.125 µg/mL (broth microdilution, measured: meropenem; DH5α pET28-lacUV5 control; 50 µM, with: meropenem).
For `COc1cc(C(=O)O)ccc1NC(=O)c1ccc(NC(=O)c2ccc(NC(=O)[C@H](Cc3c[nH]nn3)NC(=O)c3ccc(NC(=O)/C(C)=C/c4ccc(O)cc4)cc3)cc2)cc1`, the MIC was 0.25 µg/mL (broth microdilution; DSM 1116).
For `CCCCCCCCCCn1cc[n+](CCCCCCCCOc2cc(OCCCCCCCC[n+]3ccn(CCCCCCCCCC)c3)cc(OCCCCCCCC[n+]3ccn(CCCCCCCCCC)c3)c2)c1.[Br-].[Br-].[Br-]`, the MIC was 8 µM (MC4100).
For `Cn1nc(CO)c(=O)c2c(=O)[nH]c(N)nc21`, the MIC was 50 µg/mL (microbial growth, broth dilution; BW25113; 18 h).
For `CC[C@H]1OC(=O)[C@H](C)[C@@H](OC(=O)Cc2c(F)cccc2F)[C@H](C)[C@@H](O[C@@H]2O[C@H](C)C[C@H](N(C)C)[C@H]2O)[C@](C)(OC)C[C@@H](C)C(=O)[C@H](C)[C@@H](O)[C@]1(C)O`, the MIC was 2 µg/mL (tolC).
`Cc1c(CN(C)C(=O)/C=C/c2cnc3c(c2)CC(CN)C(=O)N3)oc2ccccc12` (centres unmarked) gave an MIC of 8 µg/mL (microbial growth, broth dilution; MG1655; clinical isolate).
With `CCCCCCCCCCCCCCCCCCn1cc(CN(CCC(=O)NCCN(CCC(=O)NCCN(CCC(=O)NCCN(C)C)CCC(=O)NCCN(C)C)CCC(=O)NCCN(CCC(=O)NCCN(C)C)CCC(=O)NCCN(C)C)CCC(=O)NCCN(CCC(=O)NCCN(CCC(=O)NCCN(C)C)CCC(=O)NCCN(C)C)CCC(=O)NCCN(CCC(=O)NCCN(C)C)CCC(=O)NCCN(C)C)nn1` the MIC was 6 µg/mL (broth microdilution; ATCC 25922; anaerobic, LB broth).
`CC(C)C[C@@H]1NC(=O)[C@@H](CC(C)C)NC(=O)[C@H](CCN)NC(=O)[C@@H](NC(=O)[C@H](CCN)NC(=O)[C@@H](NC(=O)CCOCCOCCOCCN=[N+]=[N-])[C@@H](C)O)CCNC(=O)[C@H]([C@@H](C)O)NC(=O)[C@H](CCN)NC(=O)[C@H](CCN)NC1=O` has an MIC of 32 µg/mL (broth microdilution; ATCC 35218, cation-adjusted Mueller-Hinton broth; 18 to 20 h, 37 °C, 0.002% polysorbate 80).
For `CCCCCCCCCCCC[N+](C)(C)CCCCCCCCOc1cc(OCCCCCCCC[N+](C)(C)CCCCCCCCCCCC)cc(OCCCCCCCC[N+](C)(C)CCCCCCCCCCCC)c1.[Br-].[Br-].[Br-]`, the MIC was 32 µM (MC4100).
`CC[C@H]1OC(=O)[C@H](C)[C@@H](OC(=O)Cc2ccc3c(c2)OCO3)[C@H](C)[C@@H](O[C@@H]2O[C@H](C)C[C@H](N(C)C)[C@H]2O)[C@](C)(OC)C[C@@H](C)C(=O)[C@H](C)[C@@H](O)[C@]1(C)O` gave an MIC of > 32 µg/mL (microbial growth; ATCC25922).
`COc1c(NC(=O)c2ccc(NC(=O)[C@H](Cc3c[nH]nn3)NC(=O)c3ccc(NC(=O)/C(C)=C/c4ccc(O)cc4)cc3)cc2)ccc(C(=O)Nc2ccc(C(=O)O)cc2)c1O` has an MIC of 0.5 µg/mL (broth microdilution; ciprofloxacin-resistant).
`CC[C@H](C)[C@H](NC(=O)[C@H](CCCNC(=N)N)NC(=O)[C@H](CC(=O)O)NC(=O)[C@H](CCCNC(=N)N)NC(=O)[C@H](CC(C)C)NC(=O)[C@H](CC(N)=O)NC(=O)[C@H](CCCNC(=N)N)NC(=O)[C@@H](N)Cc1ccccc1)C(=O)N[C@@H](CCCCN)C(=O)N[C@@H](CC(N)=O)C(=O)N[C@@H](CCCCN)C(=O)N[C@@H](Cc1ccccc1)C(=O)N[C@@H](CCC(=O)O)C(=O)N[C@@H](CC(N)=O)C(=O)N[C@@H](C)C(=O)N[C@@H](CC(C)C)C(=O)N[C@@H](CCCCN)C(=O)N[C@@H](CC(N)=O)C(=O)N[C@H](C(=O)N[C@H](C(=O)N[C@@H](CC(N)=O)C(=O)N[C@@H](CCCCN)C(=O)N[C@@H](CC(C)C)C(=O)N[C@@H](Cc1ccccc1)C(=O)N1CCC[C@H]1C(=O)O)[C@@H](C)CC)C(C)C` gave an MIC of 32 µg/mL (broth microdilution; ATCC 25922; 16 h, 37 °C, cation-adjusted Mueller-Hinton broth).
With `CC[C@H]1OC(=O)[C@H](C)[C@@H](OC(=O)Cc2cccc([N+](=O)[O-])c2)[C@H](C)[C@@H](O[C@@H]2O[C@H](C)C[C@H](N(C)C)[C@H]2O)[C@](C)(OC)C[C@@H](C)C(=O)[C@H](C)[C@@H](O)[C@]1(C)O` the MIC was 16 µg/mL (lpxC).
For `CCC(CC)c1cc(CCN2CCCN(S(=O)(=O)c3cccc4ccccc34)CC2)nc(-c2ccccn2)n1`, the MIC was > 64 µg/mL (microbial growth, broth dilution; ATCC25922).
The MIC of `CCn1cc(/C=C/c2sc3ccccc3[n+]2CC)c2ccccc21` is reported as 16 µg/mL (microbial growth, broth dilution; 780).
`CCCCCCCC(=O)Oc1c(C)c(OC)c2c(c1C)OC(=O)[C@@H](CCCCCC)[C@]2(O)/C=C/c1ccccc1` (racemic) gave an MIC of 5000 µg/mL (microbial growth, broth dilution; ATCC25922).
`CC1(C)[C@H](NC(=O)/C(=N\OC2(C(=O)O)CCCCC2)c2csc(N)n2)C(=O)N1OS(=O)(=O)O` has an MIC of 1 µg/mL (agar dilution; 16-1, ESBL-producing).
For `COC(C(N)=O)C(NC(=O)c1ccc(NC(=O)c2ccc(C#N)cc2)cc1)C(=O)Nc1ccc(C(=O)Nc2ccc(C(=O)Nc3ccc(C(=O)O)cc3)c(O)c2OC(C)C)cc1` (centres unmarked), the MIC was 0.16 µg/mL (BW25113 WT).
The MIC of `CN[C@H](CC(C)C)C(=O)N[C@H]1C(=O)N[C@@H](CC(N)=O)C(=O)N[C@H]2C(=O)N[C@H]3C(=O)N[C@H](C(=O)N[C@H](C(=O)NCc4cn(CCCCC(=O)N[C@H](C(=O)N[C@@H](CCN)C(=O)N[C@H]5CCNC(=O)[C@H]([C@@H](C)O)NC(=O)[C@H](CCN)NC(=O)[C@H](CCN)NC(=O)[C@H](CC(C)C)NC(=O)[C@@H](CC(C)C)NC(=O)[C@H](CCN)NC5=O)[C@@H](C)O)nn4)c4cc(O)cc(O)c4-c4cc3ccc4O)[C@H](O)c3ccc(c(Cl)c3)Oc3cc2cc(c3O[C@@H]2O[C@H](CO)[C@@H](O)[C@H](O)[C@H]2O[C@H]2C[C@](C)(N)[C@H](O)[C@H](C)O2)Oc2ccc(cc2Cl)[C@H]1O` is reported as 16 µg/mL (broth microdilution; ATCC 35218, cation-adjusted Mueller-Hinton broth; 18 to 20 h, 37 °C, 0.002% polysorbate 80).
For `CC[C@H]1OC(=O)[C@H](C)[C@@H](OC(=O)Cc2ccccc2Cl)[C@H](C)[C@@H](O[C@@H]2O[C@H](C)C[C@H](N(C)C)[C@H]2O)[C@](C)(OC)C[C@@H](C)C(=O)[C@H](C)[C@@H](O)[C@]1(C)O`, the MIC was > 32 µg/mL (lpxC).
The MIC of `COc1ccc2ccc(O)c(/C=N/[C@H]3CCCC[C@H]3/N=C/c3cccc(F)c3O)c2c1` is reported as > 40 µM (microbial growth, broth dilution).
`COc1cc(C(=O)O)ccc1NC(=O)c1ccc(NC(=O)c2ccc(NC(=O)[C@H](Cc3c[nH]nn3)NC(=O)c3ccc(NC(=O)/C(C)=C/c4ccc(O)cc4)cc3)cc2)cc1O` gave an MIC of 1 µg/mL (broth microdilution; ciprofloxacin-resistant).
The MIC of `O=C(O)c1ccccc(=O)c1O` is reported as > 71.4 µM (ATCC 35218).
The MIC of `CC[C@H](C)[C@H](NC(=O)[C@@H](CCCNC(=N)N)NC(=O)[C@H](CCCNC(=N)N)NC(=O)[C@@H]1CCCN1C(=O)[C@@H]1CCCN1C(=O)[C@H](CCCNC(=N)N)NC(=O)[C@@H]1CCCN1C(=O)[C@H](CCCNC(=N)N)NC(=O)[C@@H]1CCCN1C(=O)[C@H](CC(C)C)NC(=O)[C@H](Cc1ccc(O)cc1)NC(=O)[C@@H]1CCCN1C(=O)[C@@H]1CCCN1C(=O)[C@H](CCCCN)NC(=O)[C@H](CC(=O)O)NC(=O)[C@@H](N)C(C)C)C(=O)N[C@@H](Cc1ccc(O)cc1)C(=O)N[C@@H](CC(N)=O)C(=O)N[C@H](CCCNC(=N)N)C(N)=O` is reported as 8 µg/mL (broth microdilution; MC4100; 18 h, 37 °C, 25% MHB2).
With `COc1cc(C(=O)O)ccc1NC(=O)c1ccc(NC(=O)c2ccc(NC(=O)[C@H](Cc3c[nH]nn3)NC(=O)c3ccc(NC(=O)/C(C)=C/c4ccc(O)cc4)cc3)cc2)c(OC)c1` the MIC was 2 µg/mL (broth microdilution; ciprofloxacin-resistant).
For `COc1ccc2ccc(O)c(/C=N/[C@H]3CCCC[C@H]3/N=C/c3c(C)cccc3O)c2c1`, the MIC was > 40 µM (microbial growth, broth dilution).
`C/C(=C\c1ccc(O)cc1)C(=O)Nc1ccc(C(=O)N[C@@H](Cc2c[nH]nn2)C(=O)Nc2ccc(C(=O)Nc3ccc(C(=O)Nc4ccc(C(=O)O)cc4)c(O)c3)cc2)cc1` has an MIC of 0.5 µg/mL (broth microdilution; ciprofloxacin-resistant).
`CCN1CCC(CCNCc2cc3ccccc3nc2SCc2ccccc2)CC1` gave an MIC of 64 µg/mL (microbial growth, broth dilution).
The MIC of `CNC(C)C1CCC(N)C(OC2C(N)CC(N)C(OC3OCC(C)(O)C(NC)C3O)C2O)O1` (centres unmarked) is reported as 1 µM (microbial growth, broth dilution; 25922).
For `COc1c(NC(=O)c2ccc(NC(=O)c3ccc(NC(=O)[C@H](Cc4c[nH]nn4)NC(=O)c4ccc(NC(=O)/C(C)=C/c5ccc(O)cc5)cc4)cc3)cc2)ccc(C(=O)O)c1O`, the MIC was 0.031 µg/mL (broth microdilution; BW25113).
With `Cn1nnnc1NCc1nn(C)c2nc(N)[nH]c(=O)c2c1=O` the MIC was > 100 µg/mL (microbial growth, broth dilution; BW25113; 18 h).
`CCOc1c(NC(=O)c2ccc(NC(=O)c3ccc(NC(=O)[C@H](Cc4c[nH]nn4)NC(=O)c4ccc(NC(=O)/C(C)=C/c5ccc(O)cc5)cc4)cc3)c(OC)c2O)ccc(C(=O)O)c1O` gave an MIC of 0.031 µg/mL (broth microdilution; ciprofloxacin-sensitive).
`CC1(C)[C@H](NC(=O)/C(=N\OCc2c(Cl)cccc2Cl)c2csc(N)n2)C(=O)N1OS(=O)(=O)O` has an MIC of 0.5 µg/mL (agar dilution; 16-1, ESBL-producing).

Repeated from above:
`COc1cc(C(=O)O)ccc1NC(=O)c1ccc(NC(=O)c2ccc(NC(=O)[C@H](Cc3c[nH]nn3)NC(=O)c3ccc(NC(=O)/C(C)=C/c4ccc(O)cc4)cc3)cc2)cc1O` gave an MIC of 1 µg/mL (broth microdilution; ciprofloxacin-resistant).
The MIC of `O=C(O)c1ccccc(=O)c1O` is reported as > 71.4 µM (ATCC 35218).
The MIC of `CC[C@H](C)[C@H](NC(=O)[C@@H](CCCNC(=N)N)NC(=O)[C@H](CCCNC(=N)N)NC(=O)[C@@H]1CCCN1C(=O)[C@@H]1CCCN1C(=O)[C@H](CCCNC(=N)N)NC(=O)[C@@H]1CCCN1C(=O)[C@H](CCCNC(=N)N)NC(=O)[C@@H]1CCCN1C(=O)[C@H](CC(C)C)NC(=O)[C@H](Cc1ccc(O)cc1)NC(=O)[C@@H]1CCCN1C(=O)[C@@H]1CCCN1C(=O)[C@H](CCCCN)NC(=O)[C@H](CC(=O)O)NC(=O)[C@@H](N)C(C)C)C(=O)N[C@@H](Cc1ccc(O)cc1)C(=O)N[C@@H](CC(N)=O)C(=O)N[C@H](CCCNC(=N)N)C(N)=O` is reported as 8 µg/mL (broth microdilution; MC4100; 18 h, 37 °C, 25% MHB2).
With `COc1cc(C(=O)O)ccc1NC(=O)c1ccc(NC(=O)c2ccc(NC(=O)[C@H](Cc3c[nH]nn3)NC(=O)c3ccc(NC(=O)/C(C)=C/c4ccc(O)cc4)cc3)cc2)c(OC)c1` the MIC was 2 µg/mL (broth microdilution; ciprofloxacin-resistant).
For `COc1ccc2ccc(O)c(/C=N/[C@H]3CCCC[C@H]3/N=C/c3c(C)cccc3O)c2c1`, the MIC was > 40 µM (microbial growth, broth dilution).
